Results from different studies.
Compare with care: the assays were run in different laboratories. “And” joins repeats or separate records; there may be more than shown. ± marks the error that the study gave.
Sequence of UniProt D0VWV4 (whole entry, looked up): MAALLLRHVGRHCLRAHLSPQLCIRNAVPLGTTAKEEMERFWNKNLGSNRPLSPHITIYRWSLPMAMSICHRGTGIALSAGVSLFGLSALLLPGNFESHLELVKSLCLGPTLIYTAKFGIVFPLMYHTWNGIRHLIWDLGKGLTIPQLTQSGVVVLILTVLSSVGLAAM
Sequence of UniProt A5GZW8 (whole entry, looked up): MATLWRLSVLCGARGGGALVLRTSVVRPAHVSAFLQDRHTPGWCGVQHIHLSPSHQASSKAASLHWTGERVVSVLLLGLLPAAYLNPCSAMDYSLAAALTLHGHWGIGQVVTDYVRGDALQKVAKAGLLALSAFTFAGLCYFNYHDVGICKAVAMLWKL
Sequence of UniProt Q007T0 (whole entry, looked up): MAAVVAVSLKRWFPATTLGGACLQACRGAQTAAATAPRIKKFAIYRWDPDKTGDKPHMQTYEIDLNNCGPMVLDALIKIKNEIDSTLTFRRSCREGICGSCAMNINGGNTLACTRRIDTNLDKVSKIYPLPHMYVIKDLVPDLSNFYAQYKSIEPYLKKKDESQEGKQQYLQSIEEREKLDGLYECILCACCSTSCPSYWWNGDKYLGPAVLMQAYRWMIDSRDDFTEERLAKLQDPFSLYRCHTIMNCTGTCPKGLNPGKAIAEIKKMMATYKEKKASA
Sequence of UniProt Q6DWJ6 (whole entry, looked up): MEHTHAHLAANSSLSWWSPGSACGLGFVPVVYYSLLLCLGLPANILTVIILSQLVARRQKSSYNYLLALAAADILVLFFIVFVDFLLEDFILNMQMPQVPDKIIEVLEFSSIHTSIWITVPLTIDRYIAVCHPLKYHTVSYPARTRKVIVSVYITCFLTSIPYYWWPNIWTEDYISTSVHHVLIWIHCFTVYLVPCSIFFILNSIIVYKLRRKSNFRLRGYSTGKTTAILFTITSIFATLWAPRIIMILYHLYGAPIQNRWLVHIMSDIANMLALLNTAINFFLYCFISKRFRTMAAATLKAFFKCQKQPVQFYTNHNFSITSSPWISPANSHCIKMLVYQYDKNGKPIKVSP
Sequence of UniProt Q3UFF7 (whole entry, looked up): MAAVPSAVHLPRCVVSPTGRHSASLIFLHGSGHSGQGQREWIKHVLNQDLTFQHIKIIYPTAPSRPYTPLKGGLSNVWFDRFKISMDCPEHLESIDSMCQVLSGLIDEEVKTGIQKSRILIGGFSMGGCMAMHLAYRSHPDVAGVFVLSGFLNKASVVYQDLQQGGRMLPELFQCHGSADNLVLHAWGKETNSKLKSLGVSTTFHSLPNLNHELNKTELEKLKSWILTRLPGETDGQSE
Sequence of UniProt P16070 (whole entry, looked up): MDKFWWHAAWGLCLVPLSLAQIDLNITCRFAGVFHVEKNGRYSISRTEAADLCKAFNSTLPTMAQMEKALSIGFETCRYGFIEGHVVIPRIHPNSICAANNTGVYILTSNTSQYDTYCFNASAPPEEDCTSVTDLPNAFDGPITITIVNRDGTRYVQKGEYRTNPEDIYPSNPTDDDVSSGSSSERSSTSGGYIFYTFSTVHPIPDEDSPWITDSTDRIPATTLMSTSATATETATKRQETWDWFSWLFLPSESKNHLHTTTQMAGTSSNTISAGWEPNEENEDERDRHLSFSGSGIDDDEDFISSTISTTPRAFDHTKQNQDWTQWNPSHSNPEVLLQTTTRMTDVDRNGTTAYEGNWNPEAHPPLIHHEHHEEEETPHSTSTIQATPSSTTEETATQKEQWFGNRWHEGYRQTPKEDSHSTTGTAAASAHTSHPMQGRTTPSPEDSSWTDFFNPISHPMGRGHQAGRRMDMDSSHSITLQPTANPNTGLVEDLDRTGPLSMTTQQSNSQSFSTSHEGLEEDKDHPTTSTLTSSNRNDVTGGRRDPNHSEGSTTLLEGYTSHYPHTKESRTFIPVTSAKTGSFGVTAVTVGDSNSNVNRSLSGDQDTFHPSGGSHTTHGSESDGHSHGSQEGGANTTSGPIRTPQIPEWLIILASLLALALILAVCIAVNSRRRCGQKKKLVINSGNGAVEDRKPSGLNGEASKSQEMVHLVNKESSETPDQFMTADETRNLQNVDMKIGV
Sequence of UniProt Q9QYR9 (whole entry, looked up): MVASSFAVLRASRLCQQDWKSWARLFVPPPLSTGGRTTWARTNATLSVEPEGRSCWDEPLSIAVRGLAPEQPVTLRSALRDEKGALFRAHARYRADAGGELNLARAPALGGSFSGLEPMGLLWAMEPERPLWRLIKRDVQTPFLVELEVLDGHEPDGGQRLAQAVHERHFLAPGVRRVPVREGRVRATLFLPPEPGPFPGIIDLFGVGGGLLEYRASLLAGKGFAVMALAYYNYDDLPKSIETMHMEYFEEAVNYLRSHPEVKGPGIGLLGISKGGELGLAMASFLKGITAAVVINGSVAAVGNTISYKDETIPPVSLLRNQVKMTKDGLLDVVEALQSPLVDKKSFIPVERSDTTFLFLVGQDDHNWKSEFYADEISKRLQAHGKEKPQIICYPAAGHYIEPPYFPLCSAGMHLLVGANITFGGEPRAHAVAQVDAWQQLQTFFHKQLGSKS
Sequence of UniProt Q15375 (whole entry, looked up): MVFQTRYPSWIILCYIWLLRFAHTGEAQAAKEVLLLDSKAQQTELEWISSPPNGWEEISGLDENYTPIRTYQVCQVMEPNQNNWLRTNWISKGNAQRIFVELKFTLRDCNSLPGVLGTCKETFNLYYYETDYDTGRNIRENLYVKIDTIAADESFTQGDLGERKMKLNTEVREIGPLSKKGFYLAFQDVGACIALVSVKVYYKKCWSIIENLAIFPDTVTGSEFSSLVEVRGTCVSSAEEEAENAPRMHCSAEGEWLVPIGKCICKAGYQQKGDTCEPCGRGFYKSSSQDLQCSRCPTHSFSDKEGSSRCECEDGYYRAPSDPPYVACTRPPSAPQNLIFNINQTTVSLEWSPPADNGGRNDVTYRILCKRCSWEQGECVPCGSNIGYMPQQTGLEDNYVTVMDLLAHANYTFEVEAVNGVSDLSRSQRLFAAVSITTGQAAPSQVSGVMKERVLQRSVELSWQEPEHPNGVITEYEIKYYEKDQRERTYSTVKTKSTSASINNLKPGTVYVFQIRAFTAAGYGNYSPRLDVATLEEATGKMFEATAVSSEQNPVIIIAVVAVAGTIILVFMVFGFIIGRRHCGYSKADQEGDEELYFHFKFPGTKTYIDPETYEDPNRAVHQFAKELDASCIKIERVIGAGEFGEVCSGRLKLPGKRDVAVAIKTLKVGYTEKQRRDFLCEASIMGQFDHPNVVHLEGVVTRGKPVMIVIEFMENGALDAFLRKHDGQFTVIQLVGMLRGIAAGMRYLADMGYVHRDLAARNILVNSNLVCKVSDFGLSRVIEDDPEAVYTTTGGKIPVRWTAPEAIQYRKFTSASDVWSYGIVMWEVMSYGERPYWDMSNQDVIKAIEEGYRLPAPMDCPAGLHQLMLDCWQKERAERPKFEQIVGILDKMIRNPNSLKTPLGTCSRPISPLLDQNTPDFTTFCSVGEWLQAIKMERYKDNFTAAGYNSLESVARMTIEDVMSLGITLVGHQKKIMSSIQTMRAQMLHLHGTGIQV
Sequence of UniProt P30291 (whole entry, looked up): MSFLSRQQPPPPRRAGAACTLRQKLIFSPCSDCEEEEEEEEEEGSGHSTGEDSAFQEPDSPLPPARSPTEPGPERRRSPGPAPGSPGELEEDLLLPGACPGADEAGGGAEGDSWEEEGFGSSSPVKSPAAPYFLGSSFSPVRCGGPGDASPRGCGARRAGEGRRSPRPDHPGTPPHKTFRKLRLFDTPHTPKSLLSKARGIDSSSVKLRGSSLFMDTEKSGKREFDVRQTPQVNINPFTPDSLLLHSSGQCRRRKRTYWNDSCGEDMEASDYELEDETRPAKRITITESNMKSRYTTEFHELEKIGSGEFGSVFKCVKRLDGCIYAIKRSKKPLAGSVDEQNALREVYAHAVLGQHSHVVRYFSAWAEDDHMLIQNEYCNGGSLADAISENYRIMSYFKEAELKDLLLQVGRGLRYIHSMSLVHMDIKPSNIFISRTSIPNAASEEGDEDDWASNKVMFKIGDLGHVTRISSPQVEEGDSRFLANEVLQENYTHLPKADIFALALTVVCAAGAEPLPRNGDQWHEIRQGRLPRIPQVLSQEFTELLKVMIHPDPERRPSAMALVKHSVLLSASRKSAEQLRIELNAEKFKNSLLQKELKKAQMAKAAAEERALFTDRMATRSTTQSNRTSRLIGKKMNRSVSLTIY
Sequence of UniProt P10275 (whole entry, looked up): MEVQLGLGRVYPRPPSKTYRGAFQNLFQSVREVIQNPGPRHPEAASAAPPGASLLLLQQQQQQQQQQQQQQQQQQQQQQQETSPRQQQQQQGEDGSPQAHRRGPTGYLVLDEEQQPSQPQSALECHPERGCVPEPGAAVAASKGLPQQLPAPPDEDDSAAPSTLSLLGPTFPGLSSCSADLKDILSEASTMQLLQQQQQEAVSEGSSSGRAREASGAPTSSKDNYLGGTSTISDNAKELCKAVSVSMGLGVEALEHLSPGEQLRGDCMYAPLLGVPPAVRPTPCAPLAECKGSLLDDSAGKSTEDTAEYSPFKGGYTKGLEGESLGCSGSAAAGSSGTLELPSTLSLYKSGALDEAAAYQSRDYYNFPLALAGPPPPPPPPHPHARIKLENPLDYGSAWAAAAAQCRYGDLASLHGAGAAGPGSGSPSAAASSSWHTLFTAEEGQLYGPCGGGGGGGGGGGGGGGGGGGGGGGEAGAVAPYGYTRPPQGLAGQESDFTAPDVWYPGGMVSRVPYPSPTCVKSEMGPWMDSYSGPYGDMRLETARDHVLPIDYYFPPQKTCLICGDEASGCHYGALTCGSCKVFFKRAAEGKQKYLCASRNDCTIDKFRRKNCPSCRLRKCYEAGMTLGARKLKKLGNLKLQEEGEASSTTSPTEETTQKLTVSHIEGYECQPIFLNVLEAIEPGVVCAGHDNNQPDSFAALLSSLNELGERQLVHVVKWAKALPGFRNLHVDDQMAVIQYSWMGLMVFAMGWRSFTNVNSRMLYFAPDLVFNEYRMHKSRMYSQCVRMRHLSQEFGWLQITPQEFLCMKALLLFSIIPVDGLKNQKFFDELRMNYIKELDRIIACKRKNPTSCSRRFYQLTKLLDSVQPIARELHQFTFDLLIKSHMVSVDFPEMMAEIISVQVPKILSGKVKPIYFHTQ

C=CC(=O)NC[C@H](NC(=O)[C@H](CC1CCCCC1)NC(=O)[C@H](CCC(N)=O)NC(C)=O)C(=O)N[C@@H](CC(C)C)C(=O)N[C@@H](Cc1ccccc1)C(=O)O
-TΔS (Beta sliding clamp (Escherichia coli, UniProt P0A988); binding, isothermal titration calorimetry; pH 7.4, 22 °C): 2.3 kcal/mol

CC[C@H](C)[C@H](NC(=O)[C@H](CCCNC(=N)N)NC(=O)[C@H](CCCNC(=N)N)NC(=O)[C@H](CC(C)C)NC(=O)[C@H](Cc1ccccc1)NC(=O)CNC(=O)CNC(=O)[C@@H](N)Cc1ccc(O)cc1)C(=O)N[C@@H](CCCNC(=N)N)C(=O)N1CCC[C@H]1C(=O)N[C@@H](CCCCN)C(=O)N[C@@H](CC(C)C)C(=O)N[C@@H](CCCCN)C(=O)O
Emax (Probable G-protein coupled receptor 139 (GPR139, Homo sapiens, UniProt Q6DWJ6); Gαi3 activation, agonist, BRET; HEK293T/17; 40 µM): 52.7% and 47.3%

Cc1nc2ccc(S(=O)(=O)n3nc(CCCc4ccc(Cl)cc4)nc3N)cc2s1
probe labeling increase (Lysophospholipase-like protein 1 (Mus musculus, UniProt Q3UFF7); enzyme activity, activator, gel-based ABPP; purified protein; concentration not given, together with: FP-rhodamine; baseline: DMSO): 1 fold

CC(C)CC(O)(CC(C)C)c1cn(C(=O)N2CCCC2)nn1
SILAC ratio (Acyl-coenzyme A thioesterase 2, mitochondrial (Acot2, Mus musculus, UniProt Q9QYR9); probe labelling, inhibitor, competitive ABPP-SILAC, measured: Acot2; mouse T cells; concentration not given, 4 h, in situ, protein level; baseline: treated over DMSO, lower = more inhibition): 1.51

CC(C)[C@H]1NC(=O)C[C@H]2/C=C/CCSSC[C@@H](NC1=O)C(=O)N[C@H](Cc1cccc3ccccc13)C(=O)NCC(=O)O2
inhibition (Mast/stem cell growth factor receptor Kit (KIT, Homo sapiens, UniProt P10721, D816V); enzyme activity, inhibitor; 10 µM): -4.1%

O=C1NC2(CC2)COc2ncc(F)cc2[C@H]2COCCN2c2ccn3ncc1c3n2
organ-to-body weight ratio (Sprague-Dawley rat, male, spleen; oral, 5 mg/kg/day, 4 weeks, end of treatment): 0.27 ± 0.028%

CON(C(=O)c1cn(C)nc1C(F)F)C(C)Cc1c(Cl)cc(Cl)cc1Cl (stereo not shown)
reaction velocity (SDHD/SDHC/SDHB (Sus scrofa, UniProt A5GZW8+D0VWV4+Q007T0); enzyme activity, inhibitor, DCIP reduction; pig; 0.1 µM, together with: DCIP 40 µM): 0.0111 µM/s and 0.0118 µM/s and 0.0107 µM/s

Oc1ccc(C[C@@H]2CN([C@@H](CC3CCCCC3)CN3CCC[C@H]3CN3CCNC[C@@H]3Cc3ccc4ccccc4c3)CCN2CCc2ccc(Cl)c(Cl)c2)cc1
remaining binding (Delta-type opioid receptor (Oprd1, Rattus norvegicus, UniProt P33533); radioligand binding; rat brain membranes; 500 nM, pH 7.5, 25 °C, together with: 2 nM [3H]DPDPE): 98.9%

CS(C)(=O)=Nc1ccc(-c2ccc(-c3nc4cc(O[C@@H]5CO[C@H]6[C@@H]5OC[C@H]6O)[nH]c4cc3F)cc2)cc1
inhibition (LIM domain kinase 1 (LIMK1, Homo sapiens, UniProt P53667); enzyme activity, inhibitor; 10 µM): 3%

C/C(=N\OCCCN1CCCCC1)c1ccc(C(F)(F)F)cc1
activation (Androgen receptor (AR, Homo sapiens, UniProt P10275); reporter gene, agonist, luciferase reporter; 10 µM): -0.51%

C#CCCCCOc1ccc2c(c1)CCCN2C(=O)CCl
cysteine reactivity ratio (CD44 antigen (Homo sapiens, UniProt P16070); MS-ABPP alkyne probe; H460 cell lysate; baseline: high over low probe): 0.984

O=C1NC(=O)c2c1c1cc(F)c[n+]3c1c1c2c2cc(O)ccc2[n]1[Ru-4]312([N]=C=S)[S+]3CC[S+]1CC[S+]2CC3 (stereo not shown)
remaining activity (Ephrin type-A receptor 7 (EPHA7, Homo sapiens, UniProt Q15375); enzyme activity; 100 nM, human enzyme, together with: 10 µM ATP; baseline: untreated): 109%

CN(C)[C@H]1C[C@@]23CC[C@@]4(O2)C(=CC[C@]2(C)[C@@H](c5ccc6ccncc6c5)CC[C@H]24)C=C3[C@@H](O)[C@@H]1O
inhibition (Wee1-like protein kinase (WEE1, Homo sapiens, UniProt P30291); ATP probe labelling, inhibitor, KiNativ profiling; 0.1 µM): -8.5%

Some of these lines once more:
CON(C(=O)c1cn(C)nc1C(F)F)C(C)Cc1c(Cl)cc(Cl)cc1Cl (stereo not shown)
reaction velocity (SDHD/SDHC/SDHB (Sus scrofa, UniProt A5GZW8+D0VWV4+Q007T0); enzyme activity, inhibitor, DCIP reduction; pig; 0.1 µM, together with: DCIP 40 µM): 0.0111 µM/s and 0.0118 µM/s and 0.0107 µM/s

Oc1ccc(C[C@@H]2CN([C@@H](CC3CCCCC3)CN3CCC[C@H]3CN3CCNC[C@@H]3Cc3ccc4ccccc4c3)CCN2CCc2ccc(Cl)c(Cl)c2)cc1
remaining binding (Delta-type opioid receptor (Oprd1, Rattus norvegicus, UniProt P33533); radioligand binding; rat brain membranes; 500 nM, pH 7.5, 25 °C, together with: 2 nM [3H]DPDPE): 98.9%
